Assay results from different studies.
Each line is one published result; not all experiments were run side by side. ± gives the spread as reported.
TRPM8: Transient receptor potential cation channel subfamily M member 8 (TRPM8, Homo sapiens, UniProt Q7Z2W7)
Chain of UniProt Q7Z2W7 (whole entry, looked up): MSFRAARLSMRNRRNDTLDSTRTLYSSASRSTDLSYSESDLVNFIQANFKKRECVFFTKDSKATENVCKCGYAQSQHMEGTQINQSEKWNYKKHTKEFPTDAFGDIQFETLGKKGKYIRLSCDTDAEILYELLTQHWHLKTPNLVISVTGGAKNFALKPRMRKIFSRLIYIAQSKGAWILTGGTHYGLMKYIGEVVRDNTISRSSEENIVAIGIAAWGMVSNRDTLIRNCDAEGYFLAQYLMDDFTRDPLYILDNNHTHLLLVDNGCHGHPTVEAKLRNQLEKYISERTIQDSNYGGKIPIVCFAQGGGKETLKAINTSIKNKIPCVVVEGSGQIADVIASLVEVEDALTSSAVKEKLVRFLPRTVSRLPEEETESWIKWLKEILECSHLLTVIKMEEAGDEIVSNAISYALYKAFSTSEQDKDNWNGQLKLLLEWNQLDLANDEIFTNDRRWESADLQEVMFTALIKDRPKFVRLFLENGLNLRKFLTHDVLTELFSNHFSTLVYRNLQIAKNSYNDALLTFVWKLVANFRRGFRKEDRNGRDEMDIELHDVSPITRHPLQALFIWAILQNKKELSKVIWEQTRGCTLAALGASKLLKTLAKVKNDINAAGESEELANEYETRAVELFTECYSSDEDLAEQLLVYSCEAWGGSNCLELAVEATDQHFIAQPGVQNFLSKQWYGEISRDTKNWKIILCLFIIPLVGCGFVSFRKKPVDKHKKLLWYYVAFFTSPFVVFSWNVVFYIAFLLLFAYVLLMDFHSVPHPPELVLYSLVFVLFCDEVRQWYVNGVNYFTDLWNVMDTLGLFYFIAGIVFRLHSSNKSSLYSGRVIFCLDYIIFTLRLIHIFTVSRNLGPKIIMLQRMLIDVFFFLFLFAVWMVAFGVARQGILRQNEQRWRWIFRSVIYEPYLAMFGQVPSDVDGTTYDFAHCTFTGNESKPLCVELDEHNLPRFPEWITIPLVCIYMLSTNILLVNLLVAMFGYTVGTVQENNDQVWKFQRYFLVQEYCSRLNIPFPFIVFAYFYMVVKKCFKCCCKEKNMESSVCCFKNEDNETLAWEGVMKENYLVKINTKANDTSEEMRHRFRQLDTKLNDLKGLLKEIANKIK
spsB: Signal peptidase IB (spsB, Staphylococcus aureus, UniProt Q5HHB9)
Chain of UniProt Q5HHB9 (whole entry, looked up): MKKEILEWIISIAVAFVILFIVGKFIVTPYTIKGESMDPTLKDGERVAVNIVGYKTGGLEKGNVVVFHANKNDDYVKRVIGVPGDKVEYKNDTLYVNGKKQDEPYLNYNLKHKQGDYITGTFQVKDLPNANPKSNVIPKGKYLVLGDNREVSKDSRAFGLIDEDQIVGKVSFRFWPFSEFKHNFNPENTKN
Chain of UniProt Q00532 (whole entry, looked up): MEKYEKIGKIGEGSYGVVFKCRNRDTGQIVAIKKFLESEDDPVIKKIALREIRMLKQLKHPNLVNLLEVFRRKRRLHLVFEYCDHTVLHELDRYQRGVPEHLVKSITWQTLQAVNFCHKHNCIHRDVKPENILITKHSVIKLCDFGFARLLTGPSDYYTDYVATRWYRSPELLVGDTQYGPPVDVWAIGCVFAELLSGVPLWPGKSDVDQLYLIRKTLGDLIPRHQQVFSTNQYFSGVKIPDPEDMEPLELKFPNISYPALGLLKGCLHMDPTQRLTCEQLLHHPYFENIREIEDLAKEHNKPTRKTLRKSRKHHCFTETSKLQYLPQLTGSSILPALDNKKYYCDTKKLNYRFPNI
Chain of UniProt Q9Y3S1 (whole entry, looked up): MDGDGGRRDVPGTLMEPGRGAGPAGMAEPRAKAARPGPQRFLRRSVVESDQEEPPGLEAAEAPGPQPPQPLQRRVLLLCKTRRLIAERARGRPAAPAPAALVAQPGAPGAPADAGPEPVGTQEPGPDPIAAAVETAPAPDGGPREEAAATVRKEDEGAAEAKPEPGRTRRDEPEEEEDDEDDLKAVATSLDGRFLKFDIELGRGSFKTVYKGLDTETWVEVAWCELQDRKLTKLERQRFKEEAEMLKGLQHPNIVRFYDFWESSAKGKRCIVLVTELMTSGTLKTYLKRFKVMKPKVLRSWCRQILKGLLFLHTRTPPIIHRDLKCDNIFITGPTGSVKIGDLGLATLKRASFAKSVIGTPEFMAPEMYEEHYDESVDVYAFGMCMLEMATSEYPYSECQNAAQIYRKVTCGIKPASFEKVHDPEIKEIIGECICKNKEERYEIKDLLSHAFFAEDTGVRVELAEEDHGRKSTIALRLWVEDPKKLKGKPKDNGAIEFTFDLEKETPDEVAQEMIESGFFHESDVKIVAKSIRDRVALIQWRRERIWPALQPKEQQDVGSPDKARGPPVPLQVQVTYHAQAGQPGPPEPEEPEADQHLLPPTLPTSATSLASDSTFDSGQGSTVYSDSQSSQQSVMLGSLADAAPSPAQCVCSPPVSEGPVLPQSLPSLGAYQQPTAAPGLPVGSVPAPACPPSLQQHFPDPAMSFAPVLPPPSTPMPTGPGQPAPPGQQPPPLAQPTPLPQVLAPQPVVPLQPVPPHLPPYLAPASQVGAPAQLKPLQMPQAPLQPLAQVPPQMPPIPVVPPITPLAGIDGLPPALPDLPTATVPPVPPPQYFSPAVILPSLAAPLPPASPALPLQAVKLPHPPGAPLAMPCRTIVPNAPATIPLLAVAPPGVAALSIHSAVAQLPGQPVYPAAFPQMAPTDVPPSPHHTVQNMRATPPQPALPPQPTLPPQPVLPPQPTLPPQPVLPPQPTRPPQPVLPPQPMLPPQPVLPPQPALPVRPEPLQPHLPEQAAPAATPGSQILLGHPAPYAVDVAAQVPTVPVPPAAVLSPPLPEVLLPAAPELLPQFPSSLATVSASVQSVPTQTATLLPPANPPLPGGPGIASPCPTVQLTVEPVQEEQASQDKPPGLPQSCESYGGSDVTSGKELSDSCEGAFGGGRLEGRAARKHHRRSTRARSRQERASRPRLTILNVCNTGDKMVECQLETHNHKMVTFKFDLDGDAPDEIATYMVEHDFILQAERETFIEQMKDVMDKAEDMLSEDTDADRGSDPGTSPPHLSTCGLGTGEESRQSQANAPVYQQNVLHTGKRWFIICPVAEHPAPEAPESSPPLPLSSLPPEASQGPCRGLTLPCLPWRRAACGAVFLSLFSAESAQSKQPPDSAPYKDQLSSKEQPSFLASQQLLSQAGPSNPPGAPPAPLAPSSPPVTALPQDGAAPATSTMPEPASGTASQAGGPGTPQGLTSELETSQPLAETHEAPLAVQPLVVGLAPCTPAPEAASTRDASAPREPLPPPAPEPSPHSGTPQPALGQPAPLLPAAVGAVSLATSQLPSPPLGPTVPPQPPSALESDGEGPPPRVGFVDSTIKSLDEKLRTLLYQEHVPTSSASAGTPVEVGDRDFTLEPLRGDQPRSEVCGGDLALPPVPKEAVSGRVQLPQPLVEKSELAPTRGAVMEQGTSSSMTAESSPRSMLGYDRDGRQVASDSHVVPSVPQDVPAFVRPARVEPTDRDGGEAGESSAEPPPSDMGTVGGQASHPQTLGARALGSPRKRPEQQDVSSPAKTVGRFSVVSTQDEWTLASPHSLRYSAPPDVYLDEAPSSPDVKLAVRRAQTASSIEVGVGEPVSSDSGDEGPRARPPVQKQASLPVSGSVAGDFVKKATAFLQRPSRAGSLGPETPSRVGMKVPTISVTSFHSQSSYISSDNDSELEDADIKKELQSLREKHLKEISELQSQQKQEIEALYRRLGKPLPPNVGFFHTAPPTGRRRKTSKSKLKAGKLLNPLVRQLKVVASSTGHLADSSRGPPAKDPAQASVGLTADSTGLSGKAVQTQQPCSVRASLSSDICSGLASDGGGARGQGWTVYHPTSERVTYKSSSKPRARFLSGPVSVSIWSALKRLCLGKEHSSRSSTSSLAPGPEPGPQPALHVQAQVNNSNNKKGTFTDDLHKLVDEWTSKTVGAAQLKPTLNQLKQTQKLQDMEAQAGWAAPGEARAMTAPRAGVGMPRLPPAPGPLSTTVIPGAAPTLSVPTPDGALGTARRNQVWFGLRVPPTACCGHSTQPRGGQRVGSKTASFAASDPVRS

CCN(CC)CCCCN1c2ccccc2Oc2ccc(Cl)cc21
remaining activity (TRPM8; antagonist; HEK293; 5 µM; relative to: control): 92.8 ± 14.6%

O=C(NC1CCC1)c1ccc2nc(-c3cccc(NS(=O)(=O)NCCN4CCCCC4)c3)cn2c1
remaining activity (FLT3 (Homo sapiens, UniProt P36888, D835V); enzyme activity; 10 µM): 30%

COc1cc(Nc2ncc3c(n2)-c2ccc(Cl)cc2C(c2c(F)cccc2OC)=NC3)ccc1C(=O)O
remaining activity (SRC N1; kinase activity; 1 µM): 18%

COc1ccc(F)cc1C(=O)NCc1ccc(-c2nn([C@@H](C)C(F)(F)F)c(N)c2C(N)=O)cc1
remaining activity (ABL2 (Homo sapiens, UniProt P42684); 1000 nM, together with: ATP at Km): 96.9 ± 1.5%

COc1ccc2c(c1)c(C1=C(c3c[nH]c4ccccc34)C(=O)NC1=O)cn2CCCN(C)C
remaining activity (TRPM8; antagonist; HEK293; 5 µM; relative to: control): 93.7 ± 8.89%

C=CC(=O)N1CCC[C@@H](n2nc(-c3ccc(Oc4ccccc4)cc3)c3c(N)ncnc32)C1
remaining activity (CDKL1 (Homo sapiens, UniProt Q00532); 1 µM): 13.9%

CNC(=O)c1cc(Oc2ccc(N(C)C(=O)Nc3ccc(Cl)c(C(F)(F)F)c3)cc2)ccn1
remaining activity (spsB; peptidase activity, activator, FRET peptide cleavage; Staphylococcus aureus, membranes; 50 µM; relative to: DMSO): 117%

O=C(O)c1ccc(Nc2ncc3c(n2)-c2ccc(Cl)cc2C(c2c(F)cccc2F)=NC3)cc1
remaining activity (human PAK6(h); kinase activity; 1 µM): 108%

O=C1NC(=O)/C(=C/c2ccc(-c3ccc(F)cc3O)o2)S1
remaining activity (LCK (Homo sapiens, UniProt P06239); enzyme activity; 10 µM): 110%

Nc1nccc(-c2c(-c3ccc(F)cc3)ncn2C2CCNCC2)n1
remaining activity (TRPM8; antagonist; HEK293; 5 µM; relative to: control): 105 ± 9.01%

O=C(Nc1ccc(Cl)c(C(F)(F)F)c1)Nc1ccc2ccccc2c1
remaining activity (spsB; peptidase activity, activator, FRET peptide cleavage; Staphylococcus aureus, membranes; 10 µM; relative to: DMSO): 126%

O=C1c2ccccc2-c2n[nH]c3cccc1c23
remaining activity (TRPM8; antagonist; HEK293; 5 µM; relative to: control): 86.9 ± 15%

CNc1ncc2c(/C=C/C(=O)N3CCC(OC)CC3)nn(Cc3cccc(C(F)(F)F)c3)c2n1
remaining activity (STK39 (Homo sapiens, UniProt Q9UEW8); kinase activity, inhibitor; 1 µM; relative to: untreated control): 116%

CN(C)C[C@H]1CCn2c(c(C3=C(c4cn(C)c5ccccc45)C(=O)NC3=O)c3ccccc32)C1
remaining activity (TRPM8; antagonist; HEK293; 5 µM; relative to: control): 88.6 ± 6.69%

O=C(Nc1ccc(Cc2ccccc2)cc1)Nc1ccc(Cl)c(C(F)(F)F)c1
remaining activity (spsB; peptidase activity, activator, FRET peptide cleavage; Staphylococcus aureus, membranes; 100 µM; relative to: DMSO): 176%

COc1cc(F)ccc1-c1ncnc(Nc2cccc(C[S@](C)(=N)=O)c2)n1
remaining activity (PLK3 (Homo sapiens, UniProt Q9H4B4); kinase activity; 10 µM, together with: 10 µM ATP): 87%

O=C(Nc1ccc(Cl)c(C(F)(F)F)c1)N1CCC(F)(F)CC1
remaining activity (spsB; peptidase activity, activator, FRET peptide cleavage; Staphylococcus aureus, membranes; 100 µM; relative to: DMSO): 119%

CO[C@H]1[C@@H](OC)C[C@H](C)[C@@H](OC)C2=CC(=O)C=C(NC(=O)/C(C)=C/C=C\[C@H](OC)[C@@H](OC(N)=O)/C(C)=C/[C@@H]1C)C2=O
remaining activity (TRPM8; antagonist; HEK293; 5 µM): 86.4 ± 10.4%

COc1cc(NC(=O)Nc2ccc(Cl)c(C(F)(F)F)c2)cc(OC)c1OC
remaining activity (spsB; peptidase activity, activator, FRET peptide cleavage; Staphylococcus aureus, membranes; 10 µM; relative to: DMSO): 118%

COc1cc(-c2cncc3c2CN(C)Cc2cc(N4CCNCC4)ccc2-3)cc(OC)c1OC
remaining activity (MAP4K2 (Homo sapiens, UniProt Q12851); kinase activity; 1 µM, human enzyme, together with: ATP 10 µM; relative to: DMSO control): 85%

CN(C(=O)Nc1ccc(Cl)c(C(F)(F)F)c1)c1ccc2c(c1)OC(F)(F)O2
remaining activity (spsB; peptidase activity, activator, FRET peptide cleavage; Staphylococcus aureus, membranes; 10 µM; relative to: DMSO): 112%

Nc1[nH]nc2nc3ccccc3nc12
remaining activity (TRPM8; antagonist; HEK293; 5 µM; relative to: control): 95.8 ± 10%

O=C(Nc1ccc2c(c1)OCCO2)Nc1ccc(Cl)c(C(F)(F)F)c1
remaining activity (spsB; peptidase activity, activator, FRET peptide cleavage; Staphylococcus aureus, membranes; 50 µM; relative to: DMSO): 128%

Cc1cc(Nc2cc(N3CCN(C)CC3)nc(Sc3ccc(NC(=O)C4CC4)cc3)n2)[nH]n1
remaining activity (WNK2 (Homo sapiens, UniProt Q9Y3S1); kinase activity, KinaseProfiler; 0.03 µM, species human; relative to: control): 100%

O=C(Nc1cccc(NC(=O)Nc2ccc(Cl)c(C(F)(F)F)c2)c1)Nc1ccc(Cl)c(C(F)(F)F)c1
remaining activity (spsB; peptidase activity, activator, FRET peptide cleavage; Staphylococcus aureus, membranes; 100 µM; relative to: DMSO): 174%

N#CC(C#N)=C(N)/C(C#N)=C/c1ccc(O)cc1
remaining activity (TRPM8; antagonist; HEK293; 5 µM; relative to: control): 87.4 ± 9.24%

Excerpt of the above:
CNC(=O)c1cc(Oc2ccc(N(C)C(=O)Nc3ccc(Cl)c(C(F)(F)F)c3)cc2)ccn1
remaining activity (spsB; peptidase activity, activator, FRET peptide cleavage; Staphylococcus aureus, membranes; 50 µM; relative to: DMSO): 117%

O=C(O)c1ccc(Nc2ncc3c(n2)-c2ccc(Cl)cc2C(c2c(F)cccc2F)=NC3)cc1
remaining activity (human PAK6(h); kinase activity; 1 µM): 108%
